Results pooled from the literature.
Each numbered part is a random draw from the data of one study; scales do not carry over between parts. Substitutions count along the parent as printed.

Set 1
Target: RNA binding protein fox-1 homolog 2, RRM domain, GST-SBP tag (RBFOX2, Homo sapiens, UniProt O43251-10, residues 100-194)
Technique: RNA Bind-n-Seq
Form: RNA
Sample: in vitro
Concentration: 365 nM
Setting: natural RNA segment, single round, ends assumed
Reference: no-protein control
Direction: higher = stronger binding
Constant ends, left off below: GGGAGUUCUACAGUCCGACGAUC … UGGAAUUCUCGGGUGCCAA
Target sequence (chain): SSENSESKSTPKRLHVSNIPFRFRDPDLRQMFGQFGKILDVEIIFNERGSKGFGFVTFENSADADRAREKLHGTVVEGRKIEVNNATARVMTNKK
| Sequence | RBNS enrichment (R) |
| --- | --- |
| AUCUUCUAGCUAUAUAAAGAAACAAUCCAGCUGCUUAGAAGCUGUGACUAAUACAGAGUUGACUUUAAAAAAAAGCCCCUCCAAAAACUCAACUCAGCAUCUCUCCCCCU | 0.46 |
| CAACACUGACCUGGGGCCUUUACAAAUGGUUGCUCUCCUCCAUCUUCCCAGGGCUGCGGUCCUGGUGUCUACUGCCGGCCGGCUGAGUCUGCGUGGGCUUUCUGUCUCUC | 0.253 |
| AAGGAGUCUCCCCCUUCCUGCAUCACCACCUUGGUUUUGUUUUAUUUUGCUUCUUGGUCAAGAAAGGAGGGGAGAACCCAGCGCACCCCUCCCCCCCUUUUUUUAAACGC | 0.912 |
| UUAAAAAAAAUACAAUAAAGUAAAAACCGCAGUUGGAACUCUUUCCUCUCCCCAGCCCCCCUUACCUUCACUCCCAUACUGGACAAGACAUUUUGGACAUGAGUUCAAGG | 0.647 |
| GCAUGUUCUGGGCUUAGCGACAGAGGCAAGCAAGGGACUGGUGUCUCUGGUGAGAGGUGGGUUUGAUGUAUCUCUGUCCUAUGCUGGUCUCUCUUCUCCUUUAUAAAAUC | 15.5 |
| CACCUGUCAAUACUUGUUUGUAUUGAUUUCUGAUAUUCUUGCAGCUGACUACGUGUAAUUGGGCAGAUCAGCUUUGCAGUAGAUUAUGCUGCAUCCUCGUGGCAAAAUUC | 0.312 |
| UAUAGAUAUAAGCACCUCUCUAAAGAAUCUUUAGUUUCCGACGUUGAAUUAUAGACCAGUUUGAGUAAGUACUGCUUUUUUUUUUUGGAGACGGGCUCUCGCUCUGUUGC | 0.417 |
| UCCUGCUUCUUGCCGUGAUACUGUGCCCCAGAACAGCCUGGGGUCCCUGCUAGUUCCUGUCAAGGCAUGCCCAGGUUCUCCACAGCUUUCCAGUGCAAAAGGCCUAGACA | 0.726 |

Set 2
Target: Sal-like protein 4, full length isoform A (SALL4, Homo sapiens, UniProt Q9UJQ4, residues 1-1053)
UniProt Q9UJQ4, sequence (whole entry, looked up): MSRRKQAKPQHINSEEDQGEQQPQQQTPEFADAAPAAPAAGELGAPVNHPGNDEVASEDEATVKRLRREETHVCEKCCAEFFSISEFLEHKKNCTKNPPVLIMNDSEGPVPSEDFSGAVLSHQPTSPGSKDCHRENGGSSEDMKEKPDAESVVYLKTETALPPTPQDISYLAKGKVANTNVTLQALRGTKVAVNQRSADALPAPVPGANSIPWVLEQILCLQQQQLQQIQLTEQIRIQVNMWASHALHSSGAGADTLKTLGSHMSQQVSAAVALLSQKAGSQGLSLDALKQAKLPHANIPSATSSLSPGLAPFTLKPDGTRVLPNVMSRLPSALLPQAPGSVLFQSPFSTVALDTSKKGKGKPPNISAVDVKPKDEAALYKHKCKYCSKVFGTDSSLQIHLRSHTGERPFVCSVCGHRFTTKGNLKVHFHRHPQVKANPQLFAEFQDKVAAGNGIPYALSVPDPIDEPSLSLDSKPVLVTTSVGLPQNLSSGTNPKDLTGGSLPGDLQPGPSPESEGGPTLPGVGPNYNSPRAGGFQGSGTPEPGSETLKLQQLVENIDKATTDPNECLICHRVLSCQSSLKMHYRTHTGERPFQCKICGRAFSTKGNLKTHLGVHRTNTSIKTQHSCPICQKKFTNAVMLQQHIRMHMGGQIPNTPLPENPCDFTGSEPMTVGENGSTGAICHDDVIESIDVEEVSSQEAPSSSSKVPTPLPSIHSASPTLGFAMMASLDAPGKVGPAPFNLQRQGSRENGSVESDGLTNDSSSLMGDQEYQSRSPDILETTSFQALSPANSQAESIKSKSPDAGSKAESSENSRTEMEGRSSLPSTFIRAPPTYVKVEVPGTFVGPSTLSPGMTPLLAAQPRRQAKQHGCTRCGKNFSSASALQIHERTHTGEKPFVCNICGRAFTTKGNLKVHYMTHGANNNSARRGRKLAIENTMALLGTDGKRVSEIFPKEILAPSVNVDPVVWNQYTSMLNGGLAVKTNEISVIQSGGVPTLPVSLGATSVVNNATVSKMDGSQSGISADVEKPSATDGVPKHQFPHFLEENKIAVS
Technique: universal PBM
Form: double-stranded DNA, one strand shown
Sample: in vitro
Concentration: 600 nM
Setting: 8-mer, flanks averaged, mean of replicates
Direction: higher = stronger binding
| Sequence | E-score |
| --- | --- |
| ATGACTTG | 0.101 |
| ACGTCAGG | -0.123 |
| AGTTTTAG | 0.0393 |
| CTAGGGGA | -0.29 |
| ACCGTAGG | -0.237 |
| CCGAGCCC | -0.33 |
| AATAGACA | 0.0647 |
| CCCCGGAA | -0.306 |
| ACGGCCGG | -0.216 |
| CGAATTTA | 0.164 |
| CAGACCGC | -0.267 |
| CGCTGCGA | -0.182 |
| AAAGGTAG | 0.0571 |
| CGTCGCTC | -0.22 |
| CGCTACAG | -0.0585 |
| AACAAGAG | 0.0717 |
| CCCTCTGA | -0.123 |
| GACTGGAA | -0.0817 |
| AAATACCT | 0.176 |
| TCCATAAA | 0.306 |

Set 3
Target: CCNE2, cyclin fold, Cln2 fusion (human)
Technique: yeast growth competition, sequencing
Sample: yeast
Setting: weak parent motif
Reference: not given
Direction: higher = stronger binding
Parent: MASTL docking peptide (human); PMIAKNLMCELDE
| Change | normalised enrichment score |
| --- | --- |
| PMIAKNYMCELDE [L7Y] | -0.0446 |
| PMIAKNDMCELDE [L7D] | -0.331 |
| PMIAKTLMCELDE [N6T] | 0.224 |
| PMIAKNLFCELDE [M8F] | 0.0244 |
| PMIAKNLMCELQE [D12Q] | 0.246 |
| PMIAENLMCELDE [K5E] | -0.222 |
| PMIAKNLMCILDE [E10I] | 0.3 |
| PMIAKNLMCHLDE [E10H] | 0.23 |
| PMITKNLMCELDE [A4T] | -0.127 |
| PMIADNLMCELDE [K5D] | -0.157 |
| PMIAKNLMCMLDE [E10M] | -0.0781 |
| PMIAKNLMCELFE [D12F] | 0.121 |
| PMICKNLMCELDE [A4C] | 0.0718 |
| PMNAKNLMCELDE [I3N] | 0.0802 |
| PMIAKNLMCELIE [D12I] | -0.257 |
| PMIAKNRMCELDE [L7R] | -0.257 |
| PMIAKNLMCELAE [D12A] | 0.136 |
| PMQAKNLMCELDE [I3Q] | -0.0759 |
| PMIAKNLMCELRE [D12R] | 0.299 |
| PHIAKNLMCELDE [M2H] | -0.186 |
| PMIAKNLHCELDE [M8H] | -0.151 |
| PMIAKNLMCEADE [L11A] | 0.122 |
| PMIAKNLMCELCE [D12C] | 0.105 |
| PMIAKNLMCEGDE [L11G] | 0.0132 |
| PMIAKNLMCELPE [D12P] | -0.352 |

Set 4
Target: Interferon regulatory factor 7, full length, phosphomimetic (IRF7, Homo sapiens, UniProt Q92985, residues 1-503, S101K/S471D/S472D/S475D/S476D/S477D/S483D/S484D/S487D)
UniProt Q92985, sequence (whole entry, unmodified, looked up): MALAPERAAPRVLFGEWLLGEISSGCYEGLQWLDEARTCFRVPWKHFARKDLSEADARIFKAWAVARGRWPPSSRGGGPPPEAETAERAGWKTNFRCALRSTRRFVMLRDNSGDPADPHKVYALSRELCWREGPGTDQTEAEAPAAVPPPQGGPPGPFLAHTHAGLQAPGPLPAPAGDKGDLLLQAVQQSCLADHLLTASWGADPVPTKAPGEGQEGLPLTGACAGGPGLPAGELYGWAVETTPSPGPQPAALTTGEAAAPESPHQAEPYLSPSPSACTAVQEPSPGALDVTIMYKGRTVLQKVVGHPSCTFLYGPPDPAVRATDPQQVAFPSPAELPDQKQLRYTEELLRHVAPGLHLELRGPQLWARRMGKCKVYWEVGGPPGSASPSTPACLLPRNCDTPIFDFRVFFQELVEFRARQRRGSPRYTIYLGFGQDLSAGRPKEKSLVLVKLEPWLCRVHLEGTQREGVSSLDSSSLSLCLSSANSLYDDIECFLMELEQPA
Technique: protein-binding microarray
Form: double-stranded DNA, one strand shown
Sample: in vitro
Concentration: 250 nM
Setting: 60-bp whole probe
Added: salmon DNA 0.4 mg/ml
Reference: random background probes
Direction: higher = stronger binding
Constant ends, left off below: GCCTAGCAC … GTCTTGATTCGCTTGACGCTGCTG
| Sequence | log fluorescence |
| --- | --- |
| CCGTGTTTCTCAACCATTTTGTGCTAG | 1.34 z-score |
| GACGCACTGGGGACTGGGGACGTGCTA | -0.204 z-score |
| TTAGTTCTCGGTATCGGTTAGTGCTAG | 2.78 z-score |
| GACGAACTGGGGACTTGAGACGTGCTA | -0.115 z-score |
| TCATCACTCTAATCTCACACTGTGCTA | 0.203 z-score |
| GACAATATCAGTATCGAGACGTGCTAG | 0.246 z-score |
| TTAGGCCTCCTACTGCTTTAGTGCTAG | -0.0913 z-score |
| GACGGTTTCGACTGTCGGGACGTGCTA | 4.95 z-score |
| TCAGGTTTCGGTTCCGGTTAGTGCTAG | 12.9 z-score |
| TTAGATATCGGGTGTCGATTAGTGCTA | -0.111 z-score |
| GACGGTATCGAATTTCGGGACGTGCTA | 0.473 z-score |
| TCATCTCTGTTTTTGCTACTGTGCTAG | 1.04 z-score |
| TCAGTGCTCATTTTTTTACTGTGCTAG | -0.769 z-score |
| TTAGGTATCGAGTTTCGGTTAGTGCTA | 7.99 z-score |
| AAAAAAAATGGAAATCTACCCGTGCTA | -0.36 z-score |
| TTAGGACTGGCGTTTCGGTTAGTGCTA | 2.82 z-score |
| TTAGGACTGGGGACTGAGTTAGTGCTA | -0.434 z-score |
| GATGAACTGAGACTGGAGACGTGCTAG | -0.279 z-score |
| GACGGACTGGGGACCGGGGACGTGCTA | -0.531 z-score |

Some of these lines once more (set 4):
| Sequence | log fluorescence |
| --- | --- |
| TTAGATATCGGGTGTCGATTAGTGCTA | -0.111 z-score |
| TCAGGTTTCGGTTCCGGTTAGTGCTAG | 12.9 z-score |
| TTAGGACTGGCGTTTCGGTTAGTGCTA | 2.82 z-score |
| TCATCACTCTAATCTCACACTGTGCTA | 0.203 z-score |
| GACGGACTGGGGACCGGGGACGTGCTA | -0.531 z-score |
| CCGTGTTTCTCAACCATTTTGTGCTAG | 1.34 z-score |
| GACGAACTGGGGACTTGAGACGTGCTA | -0.115 z-score |
| TTAGGCCTCCTACTGCTTTAGTGCTAG | -0.0913 z-score |
| GACGGTATCGAATTTCGGGACGTGCTA | 0.473 z-score |
